Published values pooled from the literature.
Each line is one published result; not all experiments were run side by side. ± marks the error that the study gave.
CYP2C19: Cytochrome P450 2C19 (CYP2C19, Homo sapiens, UniProt P33261)
Sequence of UniProt P33261 (whole entry, looked up): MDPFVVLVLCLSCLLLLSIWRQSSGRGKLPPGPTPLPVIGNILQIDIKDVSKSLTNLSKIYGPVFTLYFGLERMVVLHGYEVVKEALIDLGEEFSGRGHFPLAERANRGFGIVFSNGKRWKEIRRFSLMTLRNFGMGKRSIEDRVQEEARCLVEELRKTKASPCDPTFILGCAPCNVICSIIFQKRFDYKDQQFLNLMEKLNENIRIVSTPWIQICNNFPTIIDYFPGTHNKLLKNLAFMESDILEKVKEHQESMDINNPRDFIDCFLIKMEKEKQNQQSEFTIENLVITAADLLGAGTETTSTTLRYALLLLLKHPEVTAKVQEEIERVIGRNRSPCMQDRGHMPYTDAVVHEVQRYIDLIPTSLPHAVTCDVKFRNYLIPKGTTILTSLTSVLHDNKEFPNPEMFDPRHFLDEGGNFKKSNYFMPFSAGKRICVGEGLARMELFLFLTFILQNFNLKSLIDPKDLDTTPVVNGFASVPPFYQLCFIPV
Sequence of UniProt P05181 (whole entry, looked up): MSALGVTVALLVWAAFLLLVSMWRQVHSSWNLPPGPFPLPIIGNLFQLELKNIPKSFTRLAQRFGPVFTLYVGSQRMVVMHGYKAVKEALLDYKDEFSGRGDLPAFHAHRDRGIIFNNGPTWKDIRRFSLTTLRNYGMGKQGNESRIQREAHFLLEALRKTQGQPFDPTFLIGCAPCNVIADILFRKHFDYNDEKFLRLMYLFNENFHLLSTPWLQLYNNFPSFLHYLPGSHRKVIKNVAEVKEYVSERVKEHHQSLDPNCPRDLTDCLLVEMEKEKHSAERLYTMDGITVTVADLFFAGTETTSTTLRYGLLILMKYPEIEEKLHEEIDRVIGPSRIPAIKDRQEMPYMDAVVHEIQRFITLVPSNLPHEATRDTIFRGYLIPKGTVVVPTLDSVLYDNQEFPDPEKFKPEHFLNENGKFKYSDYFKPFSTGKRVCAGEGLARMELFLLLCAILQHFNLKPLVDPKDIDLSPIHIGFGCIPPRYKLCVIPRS
Sequence of UniProt Q80W57 (whole entry, looked up): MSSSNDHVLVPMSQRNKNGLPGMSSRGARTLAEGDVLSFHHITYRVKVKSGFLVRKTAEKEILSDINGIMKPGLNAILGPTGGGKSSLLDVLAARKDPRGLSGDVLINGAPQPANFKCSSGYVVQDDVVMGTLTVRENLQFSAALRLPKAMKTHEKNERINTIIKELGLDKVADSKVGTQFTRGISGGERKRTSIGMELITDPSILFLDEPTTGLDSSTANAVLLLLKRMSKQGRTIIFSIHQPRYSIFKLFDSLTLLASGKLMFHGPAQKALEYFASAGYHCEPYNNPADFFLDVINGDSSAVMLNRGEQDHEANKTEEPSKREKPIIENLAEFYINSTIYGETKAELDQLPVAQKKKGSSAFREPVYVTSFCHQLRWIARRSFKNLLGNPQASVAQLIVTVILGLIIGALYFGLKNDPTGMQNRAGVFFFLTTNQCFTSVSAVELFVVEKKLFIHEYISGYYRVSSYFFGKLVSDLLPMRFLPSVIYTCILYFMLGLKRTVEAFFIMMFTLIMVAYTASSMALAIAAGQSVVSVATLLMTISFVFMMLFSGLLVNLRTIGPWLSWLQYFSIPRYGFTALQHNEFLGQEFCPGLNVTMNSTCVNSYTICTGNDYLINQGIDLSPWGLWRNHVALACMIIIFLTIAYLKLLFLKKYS

`O=C(O)CCCCCCCCCCCCCCC(=O)O` — result for “trough plasma concentration”: 111 nM (OATP1B1; human, plasma; concentration not given, 12 h after first cyclosporine dose, genotype CC, together with: oral cyclosporine plus pravastatin).
`CC1(C)[C@@H](O[C@H]2O[C@H](C(=O)O)[C@@H](O)[C@H](O)[C@H]2O[C@@H]2O[C@H](C(=O)O)[C@@H](O)[C@H](O)[C@H]2O)CC[C@]2(C)[C@H]3C(=O)C=C4[C@@H]5C[C@@](C)(C(=O)O)CC[C@]5(C)CC[C@@]4(C)[C@]3(C)CC[C@@H]12` gave a therapeutic index of 150 (Epstein-Barr virus; superinfected Raji cells; baseline: CC50 over EC50).
For `COc1ccc(C2CC(c3ccccc3)=NN2c2ccc(S(N)(=O)=O)cc2)cc1` (centres unmarked), “viable intracellular bacteria” read 85% (Staphylococcus aureus; HUVEC, MSSA ATCC 29213; 10 µmol/L, 48 h; baseline: vehicle).
With `CCCCCCCCCCCCCNCC(=O)N(CC(=O)N(CCCCN)CC(=O)N(CCN)CC(=O)N(CC(N)=O)[C@@H](C)c1ccccc1)[C@@H](C)c1ccccc1` the TD50 was 167 ± 104 µg/mL (HepG2; cytotoxicity, MTT; 72 h).
For `C=C`, the Km was 16 µM (Cytochrome P450 2E1 (CYP2E1, Homo sapiens, UniProt P05181); ethylene oxide formation, substrate; human, human liver microsomes).
Under “minimum cytotoxic concentration”, `C[C@@H](NC(=O)[C@@]1(Cc2ccccc2)CCN1C(=O)OCc1ccccc1)C(N)=O` is recorded as greater than 100 µM (HEL; microscopic cell morphology).
`O=C(O)c1cc(/N=N/c2ccc(S(=O)(=O)Nc3ccccn3)cc2)ccc1O` has an AUC(0-inf) of 223 ± 99 ng·h/mL (Abcg2 (Rattus norvegicus, UniProt Q80W57); substrate; male Sprague-Dawley rat, plasma; oral, 2 mg/kg).
Under “minimum cytotoxic concentration”, `C[C@H](NC(=O)[C@H](Cc1ccccc1)NC(=O)OCc1ccccc1)C(N)=O` is recorded as greater than 100 µM (HEL; microscopic cell morphology).
`CCOc1cccc2sc(N(Cc3cccnc3)C(=O)C3CCCCC3)nc12` has an activity of 96% (Trypanosoma cruzi; trypomastigote viability; Tulahuen; 86.5 µM, 48 h, solid sample).
`CC1=N[C@]2(C(=O)CO)[C@@H](C[C@H]3[C@@H]4C[C@@H](O)C5=CC(=O)C=C[C@]5(C)[C@H]4[C@@H](O)C[C@@]32C)O1` gave an IC50 of greater than 50 µM (CYP2C19; pooled human liver microsomes; 30 min preincubation, together with: S-mephenytoin probe and NADPH).
Under “minimum cytotoxic concentration”, `CC(C)C[C@H](NC(=O)[C@]1(Cc2ccccc2)CCN1C(=O)OCc1ccccc1)C(N)=O` is recorded as 100 µM (HEL; microscopic cell morphology).
`O=C(O)CCCCCCCCCCCCC(=O)O` — result for “trough plasma concentration”: 44.2 nM (OATP1B1; human, plasma; concentration not given, 12 h after first cyclosporine dose, genotype TC, together with: oral cyclosporine plus pravastatin).
`COc1ccccc1N1CCN(C(CNS(=O)(=O)c2ccc(Cl)cc2)c2cccnc2)CC1` (centres unmarked) gave an activity of 65% (Trypanosoma cruzi; trypomastigote viability; Tulahuen; 86.5 µM, 48 h, solid sample).
`O=c1[nH]c(=O)c(Cc2cccc(C(F)(F)F)c2)c([C@H]2CC[C@H](c3ccccc3)CC2)[nH]1` has an AUC(0-inf) of 14600 ng·h/mL (CYP2C19; human, plasma; oral, 600 mg, day 10, geometric mean, together with: fluvoxamine).

Some of these lines once more:
`CC1(C)[C@@H](O[C@H]2O[C@H](C(=O)O)[C@@H](O)[C@H](O)[C@H]2O[C@@H]2O[C@H](C(=O)O)[C@@H](O)[C@H](O)[C@H]2O)CC[C@]2(C)[C@H]3C(=O)C=C4[C@@H]5C[C@@](C)(C(=O)O)CC[C@]5(C)CC[C@@]4(C)[C@]3(C)CC[C@@H]12` gave a therapeutic index of 150 (Epstein-Barr virus; superinfected Raji cells; baseline: CC50 over EC50).
